Measured values pooled from the literature.
Lines come from different studies, so protocols differ. Numbers after ± are the reported error.
Cell line: MCF7

The IC50 of `COc1cccc(CNC[C@@](O)(COCc2ccccc2)[C@@H]2CC[C@@H](C)C[C@H]2OCc2ccccc2)c1` is reported as 1.5 µM (cell growth or viability, MTT; 72 h).
`CC(C)c1cccc(C(C)C)c1-n1c(Cl)c(Cl)n(-c2c(C(C)C)cccc2C(C)C)c1=[Se].[Cl][Ag]` has an IC50 of 2.9 µM (cell growth or viability, MTT; 72 h).
`CCCCCCCCCCCCn1c(-c2cccnc2)nc(-c2ccc(C)cc2)c1-c1ccc(C)cc1` gave an IC50 of > 100 µM (cell growth or viability, SRB; 48 h).
`COc1c(O)cc2oc3c(Br)c(O)c(CCC(C)C)c(O)c3c(=O)c2c1CCC(C)C` has an IC50 of 21.9 µM (cell growth or viability; 48 h).
With `CN1CCC2(CC1)C/C(=N\NC(=O)Nc1ccccc1)c1ccccc1O2` the IC50 was 1.67 µM (cell growth or viability, MTT; 48 h).
With `CC(=O)O[C@@H]1C[C@H]2C(C)(C)[C@H](O)CC[C@]2(C)[C@H]2CC[C@]34C[C@]3(CC[C@H]4[C@@H](C)C[C@@H](O)[C@H](O)C(C)(C)O)[C@@]21C` the IC50 was 6.1 µM (cell growth or viability, MTT).
`Oc1ccc2c(c1)OCc1c-2oc2cc3c(cc12)OCO3` gave an IC50 of 21.2 µM (cell growth or viability, MTT; 72 h).
`COc1ccc2cc3[n+](cc2c1OCc1cn(Cc2cccc(Cl)c2)nn1)CCc1cc2c(cc1-3)OCO2` has an IC50 of 66.1 µM (cell growth or viability, MTT).
`CCNC(=O)Nc1ccc(S(=O)(=O)Oc2ccccc2CC)cc1` gave an IC50 of 4.7 µM (cell growth or viability, SRB; 48 h).
The IC50 of `C/C(=N\NC(=S)NN)c1ccc(S(=O)(=O)N2CCC(C)CC2)cc1` is reported as 24.6 to 122 µM (cell growth, MTT).
`NC(=S)NNC(=O)c1cc2ccccc2oc1=O` has an IC50 of 28.6 µM (cell growth or viability, SRB; 72 h).
With `CCCn1c(-c2cccnc2)nc(-c2ccc(C)cc2)c1-c1ccc(C)cc1` the IC50 was > 100 µM (cell growth or viability, SRB; 24 h).
`C[C@@H]1CC[C@@H]([C@](O)(CNCc2ccccc2F)COCc2ccccc2)[C@H](OCc2ccccc2)C1` gave an IC50 of 1.8 µM (cell growth or viability, MTT; 72 h).
With `FC(F)(F)C1(c2ccc(CN3CCN(C(c4ccccc4)c4ccc(Cl)cc4)CC3)cc2)CCC1` (stereo not drawn) the IC50 was 102 µM (cell growth; 72 h).
`C[C@]12CC[C@@H]3c4ccc(O)cc4CC[C@H]3[C@@H]1CC[C@@]2(O)c1cn(CC(=O)c2cccc(F)c2)nn1` gave an IC50 of > 52.5 µM (cell growth or viability, resazurin; 72 h).
For `CC(=O)O[C@H]1CC[C@]2(C)[C@H]3CC=C4[C@@H]5[C@@H](C)[C@H](C)CC[C@]5(C)CC[C@@]4(C)[C@]3(C)CC[C@H]2C1(C)C`, the IC50 was 13.8 µg/mL (cell growth or viability, resazurin; 96 h).
With `C#Cc1cccc(Nc2ncnc3cc(OCCOC)c(OCCOC)cc23)c1` the IC50 was > 20 µM (cell growth or viability, trypan blue).
`CCC(C(=O)O)C1CCC(C)C(C(C)C(O)C(C)C(=O)C(CC)C2OC3(C=CC(NCc4cn(CCOCCOCCOC)nn4)C4(CCC(C)(C5CCC(O)(CC)C(C)O5)O4)O3)C(C)CC2C)O1` (stereo not drawn) gave an IC50 of > 12.5 µM (cell growth or viability, resazurin; 72 h).
The IC50 of `CC[C@@]1(C)CC[C@H]2[C@@](C)(CC[C@@]3(C)[C@@H]4CC(C)(C)CC[C@]4(C)CC[C@]23C)[C@@H]1CCC(=O)O` is reported as 27 µM (cell growth or viability, SRB).
`CCCCCCCCCCCCCCCC(=O)Oc1ccc(CO)cc1OC(=O)CCCCCCCCCCCCCCC` gave an IC50 of 6.3 ± 0.4 µg/mL (cell viability, MTT; 48 h, serum-free medium).
`Cc1ccccc1[N]1c2ncccc2N=Cc2cc(Br)ccc2[O][Pd]1[CH2]C#N` has an IC50 of 26.9 µM (cell growth or viability, MTT; 48 h).
With `CCN1CCC2(CC1)C/C(=N\NC(=O)Nc1ccc(Cl)cc1)c1ccccc1O2` the IC50 was 23.6 µM (cell growth or viability, MTT; 48 h).
`O=C(C[c-]1cccc1)Oc1ccc(-n2cccc2)cc1.[Fe+2].c1cc[cH-]c1` gave an IC50 of 103 µM (cell growth or viability, MTT).
`Cc1c(C)c(C)[c-](C)c1C.Cc1ccnc(-c2[c-]cccc2)c1.[Cl-].[Ir+3]` has an IC50 of 3.7 ± 0.1 µM (SRB; 24 h, 72 h recovery).
The IC50 of `CCOc1cccc(/C=N/c2ccccc2Nc2ccccc2)c1O` is reported as 97.6 µM (cell growth or viability, MTT; 48 h).
With `NS(=O)(=O)c1ccc(/N=N/c2ccc(O)c(/C=N/c3ccccn3)c2)cc1` the IC50 was 4.85 µM (cell growth or viability, MTT; 48 h).
The IC50 of `C=CCc1cc(OC)c(OC(C)=O)c(OC)c1` is reported as > 50 µM (MTT; 24 h).
The IC50 of `COc1ccc(/C(=C(/CCn2cc(CN3C(=O)C4(OCCO4)c4cc(F)ccc43)nn2)c2ccccc2)c2ccccc2)cc1` is reported as > 100 µM (cell growth or viability, MTT).
With `O=C(NCc1ccccc1)/C(=C/c1cn(-c2ccccc2)nc1-c1ccccc1)NC(=O)c1ccc(Cl)cc1Cl` the IC50 was 179 µM (cell growth or viability, MTT; 24 h).
For `N=C(N)NCCC[C@@H](N)C(=O)N[C@@H](CC(=O)N[C@H](Cc1ccccc1)C(=O)N[C@H](CC(=O)O)C(=O)O)c1ccc2ccccc2c1`, the IC50 was > 100 µM (cell growth or viability, ATP luminescence; 72 h).
`O=C(c1ccncc1)N1N=C2/C(=C/c3ccc(Br)cc3)CCCC2C1c1ccc(Br)cc1` (stereo not drawn) gave an IC50 of 0.0365 µM (cell growth or viability, MTT).
`COc1ccc2cc3[n+](cc2c1OCc1cn(Cc2c(Cl)cc(Cl)cc2Cl)nn1)CCc1cc2c(cc1-3)OCO2` gave an IC50 of 12.6 µM (cell growth or viability, MTT).
`CSc1nc(Nc2cccc(/C(C)=N/NC(=O)c3ccccc3)c2)c(C#N)c(-c2ccccc2)n1` has an IC50 of 25.2 µM (cell growth or viability, MTT; 48 h).
The IC50 of `COc1ccc(CS(=O)(=O)c2ccc3ccccc3c2)cc1NCC(=O)O` is reported as 0.182 µM (cell growth or viability, MTS; 48 h).
For `Nc1ccccc1NC(=O)c1cnccn1`, the IC50 was 46.3 µM (cell growth or viability, MTT; 48 h).
`COc1cc(/C=C/C(=O)/C=C(O)/C=C/c2ccc(OCC(=O)N3CCOCCOCCOCC3)c(OC)c2)ccc1OCC(=O)N1CCOCCOCCOCC1` has an IC50 of 10.8 µM (cell growth or viability, SRB).
With `C[C@]12CC/C(=N\OCCN3CCCC3)C=C1CCC1C2CC[C@]2(C)/C(=C/c3ccccn3)CCC12` (stereo partly drawn) the IC50 was > 100 µM (cell growth or viability, MTT; 72 h).
With `CC(C)(C)c1cc2c(O)c(c1)Cc1cc(C(C)(C)C)cc(c1OCC(=O)NCc1cccnc1)Cc1cc(C(C)(C)C)cc(c1O)Cc1cc(C(C)(C)C)cc(c1OCC(=O)NCc1cccnc1)COC2` the IC50 was 4.1 µM (cell growth or viability, MTT; 72 h).
With `CCCCCCCCCCCCCCn1c(-c2cccnc2)nc(-c2ccc(C)cc2)c1-c1ccc(C)cc1` the IC50 was > 100 µM (cell growth or viability, SRB; 48 h).
The IC50 of `Nc1ncnc2c1sc1sc3c(N)ncnc3c12` is reported as 4.92 µM (cell growth or viability, MTT).
The IC50 of `Cc1ccc(S(=O)(=O)[O][Re-2]2(=[C]=O)(=[C]=O)(=[C]=O)[n+]3ccc(-c4ccccc4)c4ccc5c(-c6ccccc6)cc[n+]2c5c43)cc1` is reported as 1.27 µM (cell growth or viability, resazurin; 72 h).
The IC50 of `C#CCOCC1=C(C(=O)OCC)C(c2cccc(Cl)c2)N2C(=N1)Sc1ccccc12` (stereo not drawn) is reported as 0.055 µM (cell growth or viability, MTT).
With `O=C(NCCCCCNc1n[n+]([O-])c2ccccc2[n+]1[O-])C(F)(F)F` the IC50 was 39.9 ± 10.5 µM (cytotoxicity, MTT; 10% FBS medium; 6 h + 18 h, hypoxia 3% O2).
The IC50 of `CC1=NN(C(N)=S)C(c2ccccc2)C1` (stereo not drawn) is reported as 5.8 µM (cell growth or viability, LDH).
The IC50 of `O=C(NCCCCCCCCNc1n[n+]([O-])c2ccccc2[n+]1[O-])C(F)(F)F` is reported as 60.6 ± 6.2 µM (cytotoxicity, MTT; 24 h, normoxia).
With `CCCC(CCC)C(=O)[O][Pt]1([OH])[O]C(=O)C(=O)[O]1.NC1CCCCC1N` the IC50 was 31.6 ± 2.1 µM (cytotoxicity; 72 h).
The IC50 of `COc1ccc(-c2c(C#N)c(N)n(-c3nnc(NC(=O)c4ccccc4)s3)c(=O)c2C#N)cc1` is reported as 41.6 µM (cell growth or viability, MTT; 48 h).
With `Fc1ccc(-c2cn(CSc3ccccc3)nn2)c(F)c1` the IC50 was 29.8 µM (cell growth or viability, MTS; 72 h).
With `O=C(NCCN1CCOCC1)c1cc2c3ccccc3n3c(=O)ccc(n1)c23` the IC50 was 2.9 µM (cell growth or viability, MTT; 72 h).
With `COc1ccc(S(=O)(=O)Nc2ccc(CCCC(=O)O[C@H]3c4cc5c(cc4[C@@H](c4cc(OC)c(OC)c(OC)c4)[C@H]4C(=O)OC[C@@H]43)OCO5)cc2)cc1` the IC50 was 91 µM (cell growth or viability, CCK-8; 24 h).
With `CCOC(=O)c1ccc(NC(=O)CCc2nc3cc(Cl)ccc3[nH]c2=O)cc1` the IC50 was 31.2 µM (cell growth or viability, MTT).
For `O=[C]=[Re-2]1(=[C]=O)(=[C]=O)([O]C(=O)c2ccccn2)[n+]2ccc(-c3ccccc3)c3ccc4c(-c5ccccc5)cc[n+]1c4c32`, the IC50 was 1.51 µM (cell growth or viability, resazurin; 72 h).
For `COc1c(O)c(Br)c2oc3c(Br)c(O)c(CCC(C)C)c(O)c3c(=O)c2c1CCC(C)C`, the IC50 was 19.7 µM (cell growth or viability; 48 h).
`CSc1nc(Nc2cccc(/C(C)=N/NC(=O)c3ccccc3Cl)c2)c(C#N)c(-c2ccccc2)n1` gave an IC50 of 9.77 µM (cell growth or viability, MTT; 48 h).
